Published values from different studies.
Parts stem from different laboratories: compare values within a part only. Positions count from the first letter of the parent shown.
Sequence of UniProt O15294 (whole entry, looked up): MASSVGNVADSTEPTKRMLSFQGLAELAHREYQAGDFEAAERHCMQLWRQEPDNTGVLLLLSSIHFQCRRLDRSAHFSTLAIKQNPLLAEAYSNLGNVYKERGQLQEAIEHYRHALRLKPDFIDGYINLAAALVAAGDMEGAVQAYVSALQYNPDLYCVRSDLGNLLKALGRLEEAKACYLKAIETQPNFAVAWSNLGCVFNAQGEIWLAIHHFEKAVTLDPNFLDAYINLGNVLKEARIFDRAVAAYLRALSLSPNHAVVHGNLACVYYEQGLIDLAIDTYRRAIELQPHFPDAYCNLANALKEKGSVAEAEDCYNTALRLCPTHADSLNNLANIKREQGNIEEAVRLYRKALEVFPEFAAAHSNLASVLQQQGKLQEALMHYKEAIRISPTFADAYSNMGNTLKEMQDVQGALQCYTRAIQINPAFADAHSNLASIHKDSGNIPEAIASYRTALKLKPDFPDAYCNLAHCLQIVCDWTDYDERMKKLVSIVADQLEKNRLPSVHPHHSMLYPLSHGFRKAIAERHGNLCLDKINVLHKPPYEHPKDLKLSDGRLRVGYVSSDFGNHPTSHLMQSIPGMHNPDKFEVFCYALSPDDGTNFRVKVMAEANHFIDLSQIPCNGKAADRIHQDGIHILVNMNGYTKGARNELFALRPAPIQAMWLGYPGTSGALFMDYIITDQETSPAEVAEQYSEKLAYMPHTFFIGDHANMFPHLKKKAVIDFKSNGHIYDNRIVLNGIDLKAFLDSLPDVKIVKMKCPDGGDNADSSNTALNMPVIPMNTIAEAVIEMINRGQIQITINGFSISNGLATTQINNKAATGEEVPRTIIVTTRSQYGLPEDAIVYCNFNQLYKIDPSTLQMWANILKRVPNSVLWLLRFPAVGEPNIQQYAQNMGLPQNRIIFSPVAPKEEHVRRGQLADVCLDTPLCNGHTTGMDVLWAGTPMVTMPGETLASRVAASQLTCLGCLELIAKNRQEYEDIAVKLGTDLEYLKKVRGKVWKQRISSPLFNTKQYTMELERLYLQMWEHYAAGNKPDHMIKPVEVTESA

Block 1
Target: Transcription factor SOX-2, HMG box (SOX2, Homo sapiens, UniProt P48431, residues 37-118)
Sequence of UniProt P48431 (37-118, looked up): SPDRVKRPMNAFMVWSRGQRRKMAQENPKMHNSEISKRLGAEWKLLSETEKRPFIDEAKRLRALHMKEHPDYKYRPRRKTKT
Technique: protein-binding microarray
Molecule type: hairpin DNA
Medium: in vitro
Tested at: not given
Setting: whole hairpin DNA, median over replicate spots
Reference: not given
Direction: higher = stronger binding
All sequences stand within: GCAGGCCC … GGGCCTGCACACTCTTTCCCTACACGAC
Strand	median fluorescence
ACAACGGGCCTCCTGGCCCGTTGT	2490 a.u.
ACATTGGGCCTCCTGGCCCAATGT	2550 a.u.
ACAATCGGCCTCCTGGCCGATTGT (5mC at 14 26)	2920 a.u.
ACAACTGGCCTCCTGGCCAGTTGT (5mC at 13)	2510 a.u.
ACCATGGGCCTCCTGGCCCATGGT (5mC at 10)	2440 a.u.
CCAATGGGCCTCCTGGCCCATTGG (5mC at 8)	2460 a.u.
ACAACAGGCCTCCTGGCCTGTTGT (5mC at 13)	2470 a.u.
CCAATGGGCCTCCTGGCCCATTGG (5mC at 9)	2540 a.u.

Block 2
Target: DDIT3, bZIP domain (human)
Technique: DHFR protein complementation
Medium: yeast
Setting: single substitutions, most at no-binding floor
Reference: wild-type JUN-FOS pair
Direction: higher = stronger binding
Parent: JUN, bZIP domain (human); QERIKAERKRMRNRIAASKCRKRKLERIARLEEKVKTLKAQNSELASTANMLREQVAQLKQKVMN; partner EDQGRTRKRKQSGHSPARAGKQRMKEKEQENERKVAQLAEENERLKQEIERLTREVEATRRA
Variant	binding fitness [natural log]
E33H	-0.0445
R53P	-1.2
L59P	-0.781
T37W	0.0959
V35N	-1.23
L38G	-1.18
E54V	-0.2
Q41G	-1.18

Block 3
Variant: Y141V
Target: ABI1, truncated, D143A, DHFR fusion (Arabidopsis thaliana)
Technique: DHFR PCA, deep sequencing
Medium: yeast
Setting: methotrexate growth selection, single substitutions
Reference: wild-type fitted maximum
Direction: higher = stronger binding
Parent: PYL1, truncated, DHFR fusion (Arabidopsis thaliana); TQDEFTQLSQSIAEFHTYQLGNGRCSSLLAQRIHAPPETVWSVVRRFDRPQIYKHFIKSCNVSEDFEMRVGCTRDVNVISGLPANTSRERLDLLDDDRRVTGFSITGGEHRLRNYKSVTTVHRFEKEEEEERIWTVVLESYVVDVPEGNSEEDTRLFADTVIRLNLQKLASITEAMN; partner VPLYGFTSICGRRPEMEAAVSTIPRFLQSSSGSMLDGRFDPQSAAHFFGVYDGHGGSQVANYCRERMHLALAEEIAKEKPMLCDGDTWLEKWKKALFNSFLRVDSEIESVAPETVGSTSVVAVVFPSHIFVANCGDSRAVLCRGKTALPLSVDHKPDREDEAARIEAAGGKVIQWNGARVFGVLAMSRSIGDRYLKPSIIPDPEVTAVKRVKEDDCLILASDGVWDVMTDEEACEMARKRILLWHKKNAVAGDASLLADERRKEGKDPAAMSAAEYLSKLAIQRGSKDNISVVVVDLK
together with	relative binding score
(+)-ABA 0.0091 µM	-2.4%
(+)-ABA 0.032 µM	-0.451%
(+)-ABA 710 µM	-11.2%
(+)-ABA 58 µM	-4.64%
(+)-ABA 0.11 µM	-2.76%
(+)-ABA 2500 µM	-6.33%

Other studies, line by line
Sequence	target	assay	test system	setting	scale	measurement	result
WSIHHMPRHESKYTD	UDP-N-acetylglucosamine--peptide N-acetylglucosaminyltransferase 110 kDa subunit (OGT, Homo sapiens, UniProt O15294)	binding, phage display NGS	peptide	concentration not given	reference: input library	enrichment fold change	7.3

Some of these lines once more (block 1):
Strand	median fluorescence
ACATTGGGCCTCCTGGCCCAATGT	2550 a.u.
CCAATGGGCCTCCTGGCCCATTGG (5mC at 9)	2540 a.u.
ACAATCGGCCTCCTGGCCGATTGT (5mC at 14 26)	2920 a.u.
